Measurements gathered from unrelated publications.
Numbered parts are unrelated; each lists some results of a single study. “And” joins repeats or separate records; there may be more than shown.
Chain of UniProt O43293 (whole entry, looked up): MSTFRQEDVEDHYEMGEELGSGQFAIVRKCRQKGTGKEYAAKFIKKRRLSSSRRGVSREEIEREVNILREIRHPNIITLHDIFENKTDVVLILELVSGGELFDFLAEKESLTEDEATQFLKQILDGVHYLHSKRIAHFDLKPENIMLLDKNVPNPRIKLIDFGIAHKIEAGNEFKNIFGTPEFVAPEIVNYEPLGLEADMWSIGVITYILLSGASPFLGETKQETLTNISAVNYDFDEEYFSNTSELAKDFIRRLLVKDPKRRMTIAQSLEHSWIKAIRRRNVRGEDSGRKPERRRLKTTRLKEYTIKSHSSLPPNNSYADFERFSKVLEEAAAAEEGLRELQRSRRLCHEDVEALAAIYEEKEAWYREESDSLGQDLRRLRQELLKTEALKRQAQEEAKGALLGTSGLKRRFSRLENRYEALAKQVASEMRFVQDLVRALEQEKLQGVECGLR
Chain of UniProt P51817 (whole entry, looked up): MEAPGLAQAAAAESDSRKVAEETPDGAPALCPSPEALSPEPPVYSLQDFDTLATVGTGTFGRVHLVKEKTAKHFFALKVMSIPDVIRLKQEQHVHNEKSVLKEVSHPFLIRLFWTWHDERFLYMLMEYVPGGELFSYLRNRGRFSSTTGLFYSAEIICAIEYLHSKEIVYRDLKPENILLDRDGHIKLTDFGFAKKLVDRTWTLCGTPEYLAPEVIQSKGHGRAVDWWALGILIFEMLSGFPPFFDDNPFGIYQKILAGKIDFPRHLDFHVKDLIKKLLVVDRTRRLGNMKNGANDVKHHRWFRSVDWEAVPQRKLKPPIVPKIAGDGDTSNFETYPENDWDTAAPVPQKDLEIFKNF
Chain of UniProt P57078 (whole entry, looked up): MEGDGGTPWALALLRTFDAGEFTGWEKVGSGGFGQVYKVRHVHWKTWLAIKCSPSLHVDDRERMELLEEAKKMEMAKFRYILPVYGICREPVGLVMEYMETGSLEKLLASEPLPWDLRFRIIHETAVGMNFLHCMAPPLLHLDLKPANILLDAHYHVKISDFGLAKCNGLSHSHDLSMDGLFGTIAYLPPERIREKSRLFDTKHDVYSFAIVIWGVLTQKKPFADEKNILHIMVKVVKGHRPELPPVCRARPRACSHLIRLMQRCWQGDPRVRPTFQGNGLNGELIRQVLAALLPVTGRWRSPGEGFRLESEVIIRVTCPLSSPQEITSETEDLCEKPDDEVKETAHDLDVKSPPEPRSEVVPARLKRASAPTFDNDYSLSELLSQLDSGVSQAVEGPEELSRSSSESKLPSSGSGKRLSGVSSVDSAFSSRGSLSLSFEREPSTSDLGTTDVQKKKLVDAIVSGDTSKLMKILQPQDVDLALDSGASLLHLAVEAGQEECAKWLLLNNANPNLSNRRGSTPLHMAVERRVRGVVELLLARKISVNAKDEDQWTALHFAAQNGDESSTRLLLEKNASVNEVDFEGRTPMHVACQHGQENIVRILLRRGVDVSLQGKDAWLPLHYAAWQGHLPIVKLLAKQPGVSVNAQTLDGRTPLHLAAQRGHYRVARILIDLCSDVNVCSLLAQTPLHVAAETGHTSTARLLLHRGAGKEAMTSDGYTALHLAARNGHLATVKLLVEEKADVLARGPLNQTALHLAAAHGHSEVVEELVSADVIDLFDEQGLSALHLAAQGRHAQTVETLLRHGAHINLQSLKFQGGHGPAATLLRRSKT
Chain of UniProt O14757 (whole entry, looked up): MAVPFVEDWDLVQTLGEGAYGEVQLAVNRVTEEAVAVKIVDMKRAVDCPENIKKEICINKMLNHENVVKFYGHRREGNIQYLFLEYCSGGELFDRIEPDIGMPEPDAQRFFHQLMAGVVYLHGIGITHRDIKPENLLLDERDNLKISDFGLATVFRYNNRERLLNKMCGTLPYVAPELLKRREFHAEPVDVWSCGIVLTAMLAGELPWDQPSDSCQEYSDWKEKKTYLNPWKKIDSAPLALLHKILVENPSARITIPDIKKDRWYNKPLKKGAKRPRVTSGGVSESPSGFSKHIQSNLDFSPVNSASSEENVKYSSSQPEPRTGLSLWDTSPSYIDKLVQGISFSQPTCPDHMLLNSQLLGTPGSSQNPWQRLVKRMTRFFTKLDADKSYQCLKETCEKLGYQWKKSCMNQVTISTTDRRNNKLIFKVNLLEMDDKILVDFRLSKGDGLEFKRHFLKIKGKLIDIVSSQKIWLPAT
Chain of UniProt O95819 (whole entry, looked up): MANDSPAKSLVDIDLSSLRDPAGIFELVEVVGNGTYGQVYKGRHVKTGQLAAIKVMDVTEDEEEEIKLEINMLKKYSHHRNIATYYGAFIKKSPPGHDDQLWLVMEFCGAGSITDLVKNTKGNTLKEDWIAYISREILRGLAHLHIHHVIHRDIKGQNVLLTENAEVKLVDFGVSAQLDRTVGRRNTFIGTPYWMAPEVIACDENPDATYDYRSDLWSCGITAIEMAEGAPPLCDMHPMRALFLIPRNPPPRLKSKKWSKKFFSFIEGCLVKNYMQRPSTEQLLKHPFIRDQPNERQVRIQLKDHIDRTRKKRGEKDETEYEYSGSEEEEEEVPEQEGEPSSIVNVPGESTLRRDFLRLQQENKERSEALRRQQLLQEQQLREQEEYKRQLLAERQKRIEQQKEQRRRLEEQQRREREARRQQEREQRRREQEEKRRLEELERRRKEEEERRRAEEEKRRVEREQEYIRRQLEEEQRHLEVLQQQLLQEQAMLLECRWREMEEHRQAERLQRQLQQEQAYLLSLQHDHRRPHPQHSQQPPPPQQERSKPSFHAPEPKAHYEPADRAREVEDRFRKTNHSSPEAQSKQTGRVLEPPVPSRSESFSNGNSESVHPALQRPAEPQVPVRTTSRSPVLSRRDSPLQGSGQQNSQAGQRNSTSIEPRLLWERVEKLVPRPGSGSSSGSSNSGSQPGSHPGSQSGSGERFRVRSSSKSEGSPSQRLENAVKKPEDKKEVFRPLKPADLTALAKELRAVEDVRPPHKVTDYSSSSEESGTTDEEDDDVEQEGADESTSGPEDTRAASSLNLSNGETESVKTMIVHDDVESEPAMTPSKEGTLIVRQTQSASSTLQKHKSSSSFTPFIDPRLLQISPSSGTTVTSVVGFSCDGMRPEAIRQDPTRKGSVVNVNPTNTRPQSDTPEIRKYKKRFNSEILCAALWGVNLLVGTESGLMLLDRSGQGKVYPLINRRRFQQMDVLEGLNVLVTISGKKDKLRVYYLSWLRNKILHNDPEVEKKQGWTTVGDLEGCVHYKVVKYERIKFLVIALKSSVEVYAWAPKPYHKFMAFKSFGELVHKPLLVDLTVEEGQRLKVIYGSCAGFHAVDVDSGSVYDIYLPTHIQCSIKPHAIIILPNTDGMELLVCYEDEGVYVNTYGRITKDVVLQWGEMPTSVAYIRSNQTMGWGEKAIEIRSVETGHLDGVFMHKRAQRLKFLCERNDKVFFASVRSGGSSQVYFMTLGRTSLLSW
Chain of UniProt O14965 (whole entry, looked up): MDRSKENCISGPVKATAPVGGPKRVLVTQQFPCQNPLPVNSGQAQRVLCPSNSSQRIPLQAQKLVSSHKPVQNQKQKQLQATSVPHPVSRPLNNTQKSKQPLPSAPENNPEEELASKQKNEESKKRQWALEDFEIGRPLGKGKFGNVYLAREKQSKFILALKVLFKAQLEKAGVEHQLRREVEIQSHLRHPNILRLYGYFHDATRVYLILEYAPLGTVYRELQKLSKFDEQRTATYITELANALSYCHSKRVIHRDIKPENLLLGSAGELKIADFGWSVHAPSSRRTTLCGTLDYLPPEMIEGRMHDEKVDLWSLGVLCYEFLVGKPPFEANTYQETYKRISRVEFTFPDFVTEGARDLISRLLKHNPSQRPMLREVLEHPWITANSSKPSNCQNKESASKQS
Chain of UniProt Q13976 (whole entry, looked up): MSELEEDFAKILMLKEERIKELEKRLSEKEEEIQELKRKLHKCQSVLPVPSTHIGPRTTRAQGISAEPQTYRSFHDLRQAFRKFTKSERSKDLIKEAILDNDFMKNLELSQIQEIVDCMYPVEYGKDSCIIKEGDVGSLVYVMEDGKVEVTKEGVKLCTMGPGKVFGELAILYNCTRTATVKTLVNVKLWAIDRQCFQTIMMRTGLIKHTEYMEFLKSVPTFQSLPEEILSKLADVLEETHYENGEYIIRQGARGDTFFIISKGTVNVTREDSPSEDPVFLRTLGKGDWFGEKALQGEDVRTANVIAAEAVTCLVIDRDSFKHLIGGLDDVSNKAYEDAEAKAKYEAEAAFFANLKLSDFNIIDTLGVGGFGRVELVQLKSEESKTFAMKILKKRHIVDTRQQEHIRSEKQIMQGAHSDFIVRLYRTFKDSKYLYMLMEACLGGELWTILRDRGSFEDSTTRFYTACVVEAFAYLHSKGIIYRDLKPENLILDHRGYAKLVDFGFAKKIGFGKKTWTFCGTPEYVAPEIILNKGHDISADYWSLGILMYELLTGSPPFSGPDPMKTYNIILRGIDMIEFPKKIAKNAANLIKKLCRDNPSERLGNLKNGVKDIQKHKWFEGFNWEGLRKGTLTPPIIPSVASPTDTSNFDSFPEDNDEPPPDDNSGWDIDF
Chain of UniProt P37023 (whole entry, looked up): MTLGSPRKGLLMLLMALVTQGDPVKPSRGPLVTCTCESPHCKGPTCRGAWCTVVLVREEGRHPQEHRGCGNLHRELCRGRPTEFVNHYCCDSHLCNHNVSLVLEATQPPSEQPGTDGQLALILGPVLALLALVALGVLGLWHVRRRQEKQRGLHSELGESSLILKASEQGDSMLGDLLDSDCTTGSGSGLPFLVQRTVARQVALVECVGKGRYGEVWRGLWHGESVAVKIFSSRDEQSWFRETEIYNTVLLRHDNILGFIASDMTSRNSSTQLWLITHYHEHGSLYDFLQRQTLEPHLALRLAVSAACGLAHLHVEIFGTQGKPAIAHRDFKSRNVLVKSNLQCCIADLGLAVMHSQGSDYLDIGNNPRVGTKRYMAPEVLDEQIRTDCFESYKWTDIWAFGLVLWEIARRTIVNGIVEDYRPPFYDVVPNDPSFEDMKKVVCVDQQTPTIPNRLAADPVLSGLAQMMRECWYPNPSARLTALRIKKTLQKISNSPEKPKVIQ

Series 1 — method: competition with immobilised ligand; measurement: remaining binding
SMILES: C[C@@H]1CN(c2cc(-c3n[nH]c4ccc(OC5(C)CC5)cc34)ncn2)C[C@H](C)O1
CSNK2A2 (Homo sapiens, UniProt P19784); cell-free assay; 0.1 µM: 100%
MAPK14 (Homo sapiens, UniProt Q16539); cell-free assay; 0.1 µM: 95%
ACVRL1 (Homo sapiens, UniProt P37023); cell-free assay; 0.1 µM: 94%
MAP2K4 (Homo sapiens, UniProt P45985); cell-free assay; 0.1 µM: 73%
Tyrosine-protein kinase ABL1, phosphorylated (ABL1, Homo sapiens, UniProt P00519, M351T); cell-free assay; 0.1 µM: 95%
DAPK3 (Homo sapiens, UniProt O43293); cell-free assay; 0.1 µM: 96%
TGFBR2 (Homo sapiens, UniProt P37173); cell-free assay; 0.1 µM: 100%
ROCK1 (Homo sapiens, UniProt Q13464); cell-free assay; 0.1 µM: 80%
Ribosomal protein S6 kinase alpha-6, C-terminal kinase domain (RPS6KA6, Homo sapiens, UniProt Q9UK32); cell-free assay; 0.1 µM: 85%
CHEK1 (Homo sapiens, UniProt O14757); cell-free assay; 0.1 µM: 90%
TIE1 (Homo sapiens, UniProt P35590); cell-free assay; 0.1 µM: 67%
PRKX (Homo sapiens, UniProt P51817); cell-free assay; 0.1 µM: 86%
FLT3 (Homo sapiens, UniProt P36888, N841I); cell-free assay; 0.1 µM: 46%
PIP4K2B (Homo sapiens, UniProt P78356); cell-free assay; 0.1 µM: 81%
LATS2 (Homo sapiens, UniProt Q9NRM7); cell-free assay; 0.1 µM: 68%
CDC42BPB (Homo sapiens, UniProt Q9Y5S2); cell-free assay; 0.1 µM: 93%
NLK (Homo sapiens, UniProt Q9UBE8); cell-free assay; 0.1 µM: 100%
PIK3C2G (Homo sapiens, UniProt O75747); cell-free assay; 0.1 µM: 69%
RIPK4 (Homo sapiens, UniProt P57078); binding; 1 µM: 48%

Series 2 — observed: binding; concentration: 1 µM; measurement: remaining binding
SMILES: Cc1ccc(NC(=O)c2ccnc(C(F)(F)F)c2)cc1-c1cc(OCCO)nc(N2CCOCC2)c1
PRKG1 (Homo sapiens, UniProt Q13976): 100%
ITK (Homo sapiens, UniProt Q08881): 100%
Aurora kinase A (AURKA, Homo sapiens, UniProt O14965); competition with immobilised ligand: 98%
MAP4K4 (Homo sapiens, UniProt O95819); competition with immobilised ligand: 88%
PDPK1 (Homo sapiens, UniProt O15530): 100%
MAPK4 (Homo sapiens, UniProt P31152): 96%

Series 3 — cell line: A-375; concentration: 100 µM; time: 36 h; measurement: viability
CC1(C)O[C@@H]2C[C@H]3[C@@H]4CCC5=CC(=O)C=C[C@]5(C)[C@H]4[C@@H](O)C[C@]3(C)[C@]2(C(=O)CO)O1: 108%
C[C@]12CC[C@H](O)CC1=CC[C@@H]1[C@@H]2CC[C@]2(C)C(c3cccnc3)=CC[C@@H]12: 63.8%
O=c1cc[nH]c(=S)[nH]1: 107%
CO/N=C1\C[C@]2(C[C@@H]3C[C@@H](C/C=C(\C)C[C@@H](C)/C=C/C=C4\CO[C@@H]5[C@H](O)C(C)=C[C@@H](C(=O)O3)[C@]45O)O2)O[C@H](/C(C)=C/C(C)C)[C@H]1C: 3.05%
COc1cc2nccc(Oc3ccc(NC(=O)C4(C(=O)Nc5ccc(F)cc5)CC4)cc3)c2cc1OC: 14.9% and 19.7%
C[C@H]1[C@@H](O)O[C@@H]2O[C@@]3(C)CC[C@H]4[C@H](C)CC[C@@H]1[C@@]24OO3: 13.5%
Nc1nc(N)c2nc(-c3ccccc3)c(N)nc2n1: 14.6%
COc1ccc(C(C)=O)c(O)c1: 94.5%
COCCCN1CCC(NC(=O)c2cc(Cl)c(N)c3c2OCC3)CC1: 99%

Series 4 — observed: enzyme activity; mode: inhibitor; concentration: 0.5 µM; relative to: control; measurement: remaining activity
SMILES: Nc1nc(Nc2ccc(S(N)(=O)=O)cc2)nn1C(=S)Nc1c(F)cccc1F
PIM1 (Homo sapiens, UniProt P11309): 90.7%
MELK (Homo sapiens, UniProt Q14680): 32.7%
RPS6KB2 (Homo sapiens, UniProt Q9UBS0): 96.2%
Cyclin-dependent kinase 5, with p35 (CDK5, Homo sapiens, UniProt Q00535): 11.3%
MARK1 (Homo sapiens, UniProt Q9P0L2): 2.68%
EPHB3 (Homo sapiens, UniProt P54753): 90.4%
FES (Homo sapiens, UniProt P07332): 10.2%

Excerpt of the above (series 1):
TIE1 (Homo sapiens, UniProt P35590); cell-free assay; 0.1 µM: 67%
PRKX (Homo sapiens, UniProt P51817); cell-free assay; 0.1 µM: 86%
FLT3 (Homo sapiens, UniProt P36888, N841I); cell-free assay; 0.1 µM: 46%
PIP4K2B (Homo sapiens, UniProt P78356); cell-free assay; 0.1 µM: 81%
LATS2 (Homo sapiens, UniProt Q9NRM7); cell-free assay; 0.1 µM: 68%
